# Measurements gathered from unrelated publications.
# ± marks the error that the study gave.
Compound,tested on,test,test system,conditions,how to read,measurement,result
CNC(C)Cc1ccc2c(c1)OCO2 (racemic),,,human,"oral, 1.5 mg/kg, mean over session, unit not given",reference: pre-dose baseline,change in systolic blood pressure,27.1
Cc1ncc2n1-c1ccc(Cl)cc1C(c1ccccc1F)=NC2,,,"human CYP3A5*3/*3 non-expressers, serum","geometric mean, together with: ketoconazole 200 mg",,terminal half-life,6.51 h
CN[C@@](C)(C[18F])C(=O)O,MDA-MB-468 tumour model,,"host not given, muscle","1 h, tumour-bearing",,tracer uptake,1.3 %ID/g
[123I]c1cncc(OC[C@@H]2CCN2)c1,,SPECT,"human, temporal lobe","intravenous bolus, 7.35 mCi",reference: plasma,tissue/plasma ratio,27.9
N[C@@]1(c2ccccc2Cl)CC[C@@H](O)CC1=O,,,"male CD-1 mice, plasma","intraperitoneal, 5 mg/kg",,dose-normalized Cmax,155 ± 12.6 ng/mL per mg/kg
C[C@H]1CNCCc2ccc(Cl)cc21,,,"Sprague-Dawley rat, male, plasma","subcutaneous, 1 mg/kg, 240 min",,plasma concentration,3.86 ± 0.39 ng/mL
N=C(N)c1ccc(-c2ccc(-c3cccs3)o2)cc1F,Salmonella enterica,sodium azide mutagenicity,TA1535,"10 µM, 48 h, together with: sodium azide 2 µg/plate after pre-exposure",,inhibition,67%
N[C@]1(c2ccccc2Cl)CCC[C@H](O)C1=O,,,"male CD-1 mice, plasma","intraperitoneal, 5 mg/kg",,dose-normalized Cmax,663 ± 36.4 ng/mL per mg/kg
C=C1C[C@@H]2[C@H](CC[C@]3(C)C(=O)CC[C@@H]23)[C@@]2(C)C=CC(=O)C=C12,,LC-MS/MS,"postmenopausal breast cancer women, plasma","oral, 25 mg/day, 2 h, CYP3A4*22 carriers, White only",,median plasma concentration,13.5 ng/mL
N=C(N)c1ccc(-c2ccc(-c3ccco3)o2)c(F)c1,Salmonella enterica,,TA1535,"20 µM, 48 h, together with: sodium azide after pre-exposure",reference: sodium azide alone,mutant frequency,17%
CN1CC[C@@]23CCCC[C@@H]2[C@@H]1Cc1ccc(O)cc13,,,"Wistar rat, both sexes, plasma","oral, 5 mg/kg DEM, DEM 2 h after pretreatment, together with: TCE 100 mg/kg single pretreatment",,MRT(0-inf),8.01 ± 3 h
CCCCCCCCCCC(=O)O[C@H]1CC[C@H]2[C@@H]3CCC4=CC(=O)CC[C@]4(C)[C@H]3CC[C@]12C,,,"human blood, NaF/EDTA tubes","600 ng/mL, 30 min",reference: no compound added,testosterone change,16.5%
N[C@@]1(c2ccccc2Cl)C[C@@H](O)CCC1=O,,,"female CD-1 mice, plasma","intraperitoneal, 5 mg/kg",,dose-normalized Cmax,406 ± 25.9 ng/mL per mg/kg
COc1ccc2c(c1)[C@]13CCCC[C@@H]1[C@H](C2)N(C)CC3,,,"Wistar rat, both sexes, plasma","oral, 5 mg/kg, 2 h after pretreatment, together with: single TCE 400 mg/kg",,CL/F,500 ± 167 mL/min/kg

# Repeated from above:
Compound,tested on,test,test system,conditions,how to read,measurement,result
CN[C@@](C)(C[18F])C(=O)O,MDA-MB-468 tumour model,,"host not given, muscle","1 h, tumour-bearing",,tracer uptake,1.3 %ID/g
[123I]c1cncc(OC[C@@H]2CCN2)c1,,SPECT,"human, temporal lobe","intravenous bolus, 7.35 mCi",reference: plasma,tissue/plasma ratio,27.9
